Results collected from several papers.
Each numbered part is a random draw from the data of one study; scales do not carry over between parts. Substitutions count along the parent as printed.

Sample 1 — target: CCNB1, cyclin fold, Cln2 fusion (human); method: yeast growth competition, sequencing; medium: yeast; notes: strong parent motif; baseline: not given; reading: higher = stronger binding
Parent: E2F1 docking peptide (human); PPVKRRLDLETDH
| Variant | normalised enrichment score |
| --- | --- |
| R5I | 0.471 |
| T11M | 1.31 |
| P2G | 0.833 |
| L7R | 0.853 |
| H13Y | 1.33 |
| H13K | 1.05 |
| T11I | 1.44 |
| H13N | 0.952 |
| K4V | 3.41 |
| H13T | 1.61 |
| E10W | 0.626 |
| E10Q | 1.04 |
| V3L | 0.326 |
| H13W | 0.952 |
| T11F | 2.58 |
| D8N | 1.96 |
| P1V | 1.12 |
| R5N | 0.416 |
| L7Y | 0.514 |
| E10S | 0.462 |
| K4A | 2.09 |
| K4P | 0.554 |
| V3Y | 0.116 |

Sample 2 — method: universal PBM; form: double-stranded DNA, one strand shown; medium: in vitro; tested at: not given; reading: higher = stronger binding
Target: Sal-like protein 4, full length isoform B (SALL4, Homo sapiens, UniProt Q9UJQ4-2, residues 1-616)
Notes: 8-mer, flanks averaged, mean of replicates
| Sequence | E-score |
| --- | --- |
| AGATTTGC | 0.0745 |
| GCAACTAC | 0.0966 |
| CAGGTGAA | -0.00797 |
| ACAACAAC | 0.118 |
| TAGCACAA | 0.0502 |
| ATTGAATC | 0.213 |
| CAAGCTAC | -0.051 |
| AGGCTATG | -0.0372 |
| AAACTATC | 0.156 |
| CGTTTTTC | 0.125 |
| ATGAAGGA | 0.27 |
| GTAGGTGA | -0.043 |
| CTGTCGGA | -0.121 |
| ATCGTAAT | 0.266 |
| GCCTGTAC | -0.0566 |
| AATGGTGT | 0.139 |
| CCTGTTCG | -0.204 |
| CAACTCGA | -0.0914 |
| ACCGCCCC | -0.274 |
| GCCCGACC | -0.291 |
| ATAGCGAT | -0.0546 |
| CCGCTTAC | -0.19 |
| ACGTGACT | -0.0305 |

Sample 3 — method: protein-binding microarray; form: double-stranded DNA, one strand shown; medium: in vitro; tested at: 2200 nM top; notes: 60-bp whole probe; together with: salmon DNA 0.4 mg/ml; baseline: random background probes; reading: higher = stronger binding; all sequences stand within: GCCTAGCAC … GTCTTGATTCGCTTGACGCTGCTG
Target: Interferon regulatory factor 7, full length, phosphomimetic (IRF7, Homo sapiens, UniProt Q92985, residues 1-503, S471D/S472D/S475D/S476D/S477D/S483D/S484D/S487D)
Target sequence (chain): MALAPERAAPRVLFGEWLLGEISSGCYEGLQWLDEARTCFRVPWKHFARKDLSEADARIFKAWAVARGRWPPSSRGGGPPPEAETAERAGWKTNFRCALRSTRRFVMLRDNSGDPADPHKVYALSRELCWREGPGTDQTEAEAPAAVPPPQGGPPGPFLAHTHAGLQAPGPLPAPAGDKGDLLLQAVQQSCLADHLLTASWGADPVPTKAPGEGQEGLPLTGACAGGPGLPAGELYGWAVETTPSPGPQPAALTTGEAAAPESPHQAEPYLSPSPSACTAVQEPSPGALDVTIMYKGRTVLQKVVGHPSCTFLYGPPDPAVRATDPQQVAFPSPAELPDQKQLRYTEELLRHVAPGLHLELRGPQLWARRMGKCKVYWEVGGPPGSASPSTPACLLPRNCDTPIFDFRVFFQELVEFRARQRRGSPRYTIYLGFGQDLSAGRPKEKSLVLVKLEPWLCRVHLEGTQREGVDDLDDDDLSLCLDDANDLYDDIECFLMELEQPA
| Sequence | fitted relative affinity |
| --- | --- |
| TCAATTTTCAGTATTACACTGTGCTAG | 2.25 z-score |
| GACGATCTGAGTCTCGAGACGTGCTAG | -0.0803 z-score |
| TTAGGACTGGACTTTCGGTTCGTGCTA | 10.3 z-score |
| TTAGGACTGGGTTTTCGGTTAGTGCTA | 2.97 z-score |
| TTAGAACTGAGTTTCGGTTAGTGCTAG | 4.84 z-score |
| GTGACTCTGAACCTTCAGCTCGTGCTA | 0.576 z-score |
| ATAGATTTCGGGTTTCGATTAGTGCTA | 6.47 z-score |
| TCAGAATTTACTTTCTAACTGTGCTAG | 1.26 z-score |
| TCAGTTTTCTCTCCCATACTGTGCTAG | 3.12 z-score |
| TCACTTCTGGGCTGTTTGACTGTGCTA | 1.2 z-score |
| TTATGTATCGACTTTCGGTTAGTGCTA | 7.05 z-score |
| TGAGGTTTCGGTCTCGGTTAGTGCTAG | 6.02 z-score |
| GACGGTATCGGTCTCGGGACGTGCTAG | 0.00494 z-score |
| TTAGTACTGAGTATCGATTAGTGCTAG | 0.379 z-score |
| TCAGTTCTCAGACTGGGACTGTGCTAG | 0.857 z-score |
| TTAGTTCTCCTACTGCTTTAGTGCTAG | 1.47 z-score |
| GTATATACACTTATGACTTTGTGCTAG | 0.714 z-score |
| GTAGGACTGCTTTTCCTTTAGTGCTAG | 1.44 z-score |
| TTAGGTCTCAGTATCGATTAGTGCTAG | 0.369 z-score |
| TTAGGTCTCGGACTGGGATAGTGCTAG | -0.408 z-score |
| CTCCTTCAGTATCCTTAGATGTGCTAG | 1.71 z-score |
| TGAGGTATCCTTCTCCTTTAGTGCTAG | 0.843 z-score |
| GACGAACTGCTTATCCTGACGTGCTAG | 0.597 z-score |
| GTAGGACTGCTACTGCTTTAGTGCTAG | -0.0546 z-score |

Sample 4 — target: CREB3L4, bZIP domain (human); method: DHFR protein complementation; medium: yeast; baseline: wild-type JUN-FOS pair; reading: higher = stronger binding
Notes: single substitutions, most at no-binding floor
Parent: JUN, bZIP domain (human); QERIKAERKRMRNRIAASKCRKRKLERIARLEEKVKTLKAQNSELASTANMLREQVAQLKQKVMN; partner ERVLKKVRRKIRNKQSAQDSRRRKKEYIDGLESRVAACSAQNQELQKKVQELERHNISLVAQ
| Variant | binding fitness |
| --- | --- |
| K34R | -1.4 natural log |
| E33F | -1.53 natural log |
| A46F | -1.47 natural log |
| E54D | -1.09 natural log |
| M51N | -1.5 natural log |
| A49C | -1.26 natural log |
| A57K | -1.57 natural log |
| E44P | -1.49 natural log |
| T48F | -1.41 natural log |
| S47I | -1.27 natural log |
| K34H | -1.48 natural log |
| E33C | -1.11 natural log |
| T37Q | -1.49 natural log |
| Q41D | -1.53 natural log |
| R30N | -1.48 natural log |
| E54I | -1.37 natural log |
| L31D | -1.5 natural log |

Sample 5 — method: DHFR PCA, deep sequencing; medium: yeast; together with: (+)-ABA 4.8 µM; baseline: wild-type fitted maximum; reading: higher = stronger binding
Target: ABI1, truncated, D143A, DHFR fusion (Arabidopsis thaliana)
Notes: methotrexate growth selection, single substitutions
Parent: PYL1, truncated, DHFR fusion (Arabidopsis thaliana); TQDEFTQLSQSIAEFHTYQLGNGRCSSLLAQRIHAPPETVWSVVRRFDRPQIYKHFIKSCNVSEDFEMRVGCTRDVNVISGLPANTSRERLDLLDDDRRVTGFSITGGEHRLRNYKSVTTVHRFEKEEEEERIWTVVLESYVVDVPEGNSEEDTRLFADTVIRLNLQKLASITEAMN
| Variant | relative binding score [%] |
| --- | --- |
| V100H | 5.27 |
| V62N | -14.6 |
| S63Q | 65.2 |
| S87V | 34.3 |
| M176P | 63.1 |
| N22V | 77.9 |
| N85S | 85.1 |
| I105C | 19.5 |
| K54N | -2.81 |
| D95L | 14.9 |
| Q7W | 80.3 |
| I33Y | 0.311 |
| L8W | 59.5 |
| I52V | 83.5 |
| E129Y | 64.4 |
| R155F | -14.2 |
| R155A | 11.7 |
| I172V | 91.6 |
| E127L | 71.4 |
| K58F | 10 |
| E128T | 76.9 |
| T119L | 51.5 |
| I133M | 79.6 |
| V44Y | -9.61 |

Sample 6 — method: protein binding microarray; form: double-stranded DNA, one strand shown; medium: in vitro; tested at: not given; baseline: not given; reading: higher = stronger binding
Target: Histone acetyltransferase KAT6A, winged helix 1, GST fusion (KAT6A, Homo sapiens, UniProt Q92794, residues 1-85)
Notes: 8-mer, flanks averaged, mean of 2 arrays, mostly near background
Target sequence (chain): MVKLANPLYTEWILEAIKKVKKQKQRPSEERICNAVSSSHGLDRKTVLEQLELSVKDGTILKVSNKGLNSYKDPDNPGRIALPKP
| Sequence | E-score |
| --- | --- |
| CTGATCAC | -0.122 |
| CGGCTACA | 0.253 |
| GCACAGGA | -0.0668 |
| CCACTACC | -0.0372 |
| AGACACAT | -0.188 |
| ACGCGGTG | 0.268 |
| ACGCCGCT | 0.385 |
| CCACCCCG | 0.21 |
| ACGAGAGC | -0.0126 |
| GAAACTAA | -0.126 |
| CCAGCGCG | 0.356 |
| GATAGGCA | -0.249 |
| GGAGCACC | -0.0157 |
| AGGACGCC | 0.0704 |
| CACTGGGG | -0.159 |
| TAGTTCCA | -0.153 |
| CCTGGAAA | -0.103 |
| CATAGTCG | 0.0272 |

Repeated from above (sample 1):
| Variant | normalised enrichment score |
| --- | --- |
| V3L | 0.326 |
| H13W | 0.952 |
| T11F | 2.58 |
| D8N | 1.96 |
| P1V | 1.12 |
| R5N | 0.416 |
| L7Y | 0.514 |
| E10S | 0.462 |
| K4A | 2.09 |
